Results of several laboratories.
Protocols differ between the studies behind these lines. ± gives the spread as reported.

SMILES = COC(=O)C1CCN(C(=O)c2ccc(N(C)Cc3cnc4nc(N)nc(N)c4n3)cc2)CC1; tested on = A549; test = CellTiter-Glo; setting = 10 µM; how to read = 100 none, 0 cytostatic, -100 cytotoxic; endpoint = cell growth; result = 161 ± 3.62%
SMILES = Cc1c2ccncc2c(C)c2c1[nH]c1ccccc12; tested on = A549; how to read = reference: CL over A549; endpoint = selectivity index; result = 1.82
SMILES = COc1c(CCC[P+](c2ccccc2)(c2ccccc2)c2ccccc2)cc2c(c1OC)OCO2.[I-]; tested on = A549; test = NCI60 SRB; endpoint = TGI; result = -4.42 log M
SMILES = CN1CCN(C2(CNC3CCN(c4cccc(-c5cc6cc(F)ccc6[nH]5)c4)CC3)CCC2)CC1; tested on = A549; endpoint = TGI; result = 3.51 µM
SMILES = COc1cc(CCC[P+](c2ccccc2)(c2ccccc2)c2ccccc2)c(OC)c2c1OCO2.[I-]; tested on = A549; test = NCI60 SRB; endpoint = TGI; result = -4.16 log M
SMILES = Cc1cc(NS(=O)(=O)c2ccc(NC(=O)/C(C#N)=C/c3ccc(N4CCCCC4)cc3)cc2)no1; tested on = A549; test = cytotoxicity, MTT; how to read = reference: HSF over A549 IC50; endpoint = selectivity index; result = > 5.49
SMILES = Nc1ncc(-c2nc(N3CCOCC3)nc(N3CCOCC3)n2)c(C(F)F)n1; tested on = A549; setting = 72 h; endpoint = GI50; result = 0.102 µM
SMILES = CC[C@@H](C)[C@@H](NC(=O)[C@@H](Cc1c[nH]c2ccccc12)NC(=O)[C@@H](CCCNC(=N)N)NC(=O)[C@H](CCC(N)=O)NC(=O)[C@@H]1CCCN1C(=O)[C@H](CCCNC(=N)N)NC(=O)[C@H](CCCNC(=N)N)NC(=O)[C@H](CCCNC(=N)N)NC(=O)[C@H](CCC(N)=O)NC(=O)[C@H](CCCNC(=N)N)NC(=O)[C@H](CCCNC(=N)N)NC(=O)[C@H](CCCCN)NC(=O)[C@H](CCCCN)NC(=O)[C@H](CCCNC(=N)N)NC(=O)CN)C(=O)N[C@H](CCSC)C(=O)N[C@H](Cc1ccc(O)cc1)C(=O)N[C@H](Cc1ccccc1)C(N)=O; tested on = A549; test = MTT; endpoint = sublethal dose; result = 2 µM
SMILES = O=[N+]([O-])c1nccn1CC(O)CNCCBr (centres unmarked); tested on = A549; test = cell viability, SRB; setting = anoxic 4 h, then oxic 120 h; endpoint = IC50; result = 38.8 ± 6.8 µM
SMILES = N.N.[Cl][Pt][Cl]; tested on = A549; test = cell growth, MTT; setting = 48 h, LED light photolysis 1 h; endpoint = IC50; result = 15.8 ± 4.8 µM
SMILES = NC(=O)c1ncn([C@@H]2O[C@H](CO)[C@@H](O)[C@H]2O)c1O; tested on = human coronavirus OC43; test = virus-induced cell killing; test system = MRC-5; setting = screen; endpoint = maximum inhibition; result = 8.54%
SMILES = CCN(CC)c1ccc(C=NNC(=O)CSc2nc3ccccc3c(=O)n2Cc2ccc(S(N)(=O)=O)cc2)c(O)c1; tested on = A549; test = NCI five-dose screen; endpoint = CC50; result = > 100 µM
SMILES = CCN(CC)CCCCNc1ncc2cc(-c3cc(OC)cc(OC)c3)c(NC(=O)NC(C)(C)C)nc2n1; tested on = human coronavirus OC43; test = virus-induced cell killing; test system = MRC-5; setting = maximum over 10 doses; endpoint = maximum inhibition; result = 0%
SMILES = CC(C)N1CCC(NC2CCN(c3cccc(-c4cc5cc(F)ccc5[nH]4)c3)CC2)CC1; tested on = A549; endpoint = GI50; result = 1.72 µM

For quick reference, copied from above:
SMILES = COc1cc(CCC[P+](c2ccccc2)(c2ccccc2)c2ccccc2)c(OC)c2c1OCO2.[I-]; tested on = A549; test = NCI60 SRB; endpoint = TGI; result = -4.16 log M
SMILES = Cc1cc(NS(=O)(=O)c2ccc(NC(=O)/C(C#N)=C/c3ccc(N4CCCCC4)cc3)cc2)no1; tested on = A549; test = cytotoxicity, MTT; how to read = reference: HSF over A549 IC50; endpoint = selectivity index; result = > 5.49
